Measurements gathered from unrelated publications.
Numbered parts are unrelated; each lists some results of a single study.
Chain of UniProt P08913 (whole entry, looked up): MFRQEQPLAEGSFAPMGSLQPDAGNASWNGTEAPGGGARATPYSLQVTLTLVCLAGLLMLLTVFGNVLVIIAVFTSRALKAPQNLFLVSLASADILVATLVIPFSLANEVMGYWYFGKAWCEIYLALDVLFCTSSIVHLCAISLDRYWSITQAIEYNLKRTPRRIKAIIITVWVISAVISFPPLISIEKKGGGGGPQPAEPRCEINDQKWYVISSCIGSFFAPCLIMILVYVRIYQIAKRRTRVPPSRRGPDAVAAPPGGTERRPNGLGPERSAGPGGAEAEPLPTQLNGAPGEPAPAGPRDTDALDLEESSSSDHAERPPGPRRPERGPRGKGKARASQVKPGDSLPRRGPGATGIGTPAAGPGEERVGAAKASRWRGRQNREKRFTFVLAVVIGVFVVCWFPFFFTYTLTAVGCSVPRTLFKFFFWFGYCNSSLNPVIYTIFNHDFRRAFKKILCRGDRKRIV

Series 1
Target: Signal transducer and activator of transcription 1-alpha/beta, full length (STAT1, Homo sapiens, UniProt P42224, residues 1-750)
Chain of UniProt P42224 (whole entry, looked up): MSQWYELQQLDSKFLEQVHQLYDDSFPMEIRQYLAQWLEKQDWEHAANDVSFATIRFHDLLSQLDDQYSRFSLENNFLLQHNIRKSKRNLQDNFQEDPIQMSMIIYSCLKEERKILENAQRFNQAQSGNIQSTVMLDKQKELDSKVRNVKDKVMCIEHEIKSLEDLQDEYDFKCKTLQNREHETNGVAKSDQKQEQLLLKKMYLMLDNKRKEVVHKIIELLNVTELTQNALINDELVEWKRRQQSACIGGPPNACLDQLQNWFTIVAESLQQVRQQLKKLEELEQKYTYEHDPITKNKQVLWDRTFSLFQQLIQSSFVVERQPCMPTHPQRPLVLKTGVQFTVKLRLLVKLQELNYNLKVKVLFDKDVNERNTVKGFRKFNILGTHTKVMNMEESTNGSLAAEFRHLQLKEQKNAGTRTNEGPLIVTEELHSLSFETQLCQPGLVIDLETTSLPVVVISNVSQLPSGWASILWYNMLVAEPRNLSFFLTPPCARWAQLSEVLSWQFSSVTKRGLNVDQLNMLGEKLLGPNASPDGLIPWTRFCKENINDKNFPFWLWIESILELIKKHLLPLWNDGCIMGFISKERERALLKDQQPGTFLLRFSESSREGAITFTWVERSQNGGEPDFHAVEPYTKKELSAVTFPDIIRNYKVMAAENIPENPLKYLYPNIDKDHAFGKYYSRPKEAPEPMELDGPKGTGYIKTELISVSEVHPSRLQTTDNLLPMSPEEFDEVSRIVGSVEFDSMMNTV
Technique: protein-binding microarray
Molecule type: hairpin DNA
Medium: in vitro
Concentration: not given
Setting: whole hairpin DNA, median over replicate spots
Reference: not given
Reading: higher = stronger binding
All sequences stand within: GAGGCC … GGCCTCACACTCTTTCCCTACACG
Oligonucleotide	median fluorescence [a.u.]
TTCGCCGGAAGCCTCCTGGCTTCCGGCGAA	1290
TTTCCCGGAAGCCTCCTGGCTTCCGGGAAA (5mC at 10)	12200
TGTCCCGGAAGCCTCCTGGCTTCCGGGACA	1490
CGTCCCGGAAGCCTCCTGGCTTCCGGGACG (5mC at 7 35)	1170
TCGCCCGGAAGCCTCCTGGCTTCCGGGCGA (5mC at 8)	1390
TTTCTCGGAAGCCTCCTGGCTTCCGAGAAA (5mC at 10)	3760
TTTCCCGCGAGCCTCCTGGCTCGCGGGAAA (5mC at 14 28)	1010
TTTCCCGGCCGCCTCCTGGCGGCCGGGAAA	858

Series 2
Target: Centromere-binding protein 1, full length, His-tagged (CBF1, Saccharomyces cerevisiae, UniProt P17106, residues 1-351)
Chain of UniProt P17106 (whole entry, looked up): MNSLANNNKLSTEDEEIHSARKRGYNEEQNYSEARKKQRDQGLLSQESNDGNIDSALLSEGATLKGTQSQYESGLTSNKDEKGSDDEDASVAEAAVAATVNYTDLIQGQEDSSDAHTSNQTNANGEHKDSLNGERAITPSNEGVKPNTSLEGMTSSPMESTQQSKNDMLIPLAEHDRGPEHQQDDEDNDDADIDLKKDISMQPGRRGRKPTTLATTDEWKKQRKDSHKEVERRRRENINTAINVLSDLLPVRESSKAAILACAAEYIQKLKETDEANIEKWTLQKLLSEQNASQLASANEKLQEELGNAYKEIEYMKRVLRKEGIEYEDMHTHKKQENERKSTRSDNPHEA
Technique: competition protein-binding microarray
Molecule type: double-stranded DNA, one strand shown
Medium: in vitro
Concentration: 2 µM
Setting: whole 60-bp probe, lowest competitor level
Added: Pho4 competitor, 0.05 µM
Reading: higher = stronger binding
All sequences stand within: … GTCTTGATTCGCTTGACGCTGCTG
Oligonucleotide	fluorescence intensity [a.u.]
CATACCCAACCTTGTGATGTGGGTGAAGATATTTGT	83.3
CATACCCAACCTTGTCACCCGACTTAAGATATTTGT	84
GGTTTGTCCGTTTTATGACTCTCCTCAACAAGATAT	103
AGAATCAAAGCTCACCACGTCATAGTTGCGAAAGCC	93.4
TGCGCAACAACTTGTCTTGTGGGTGTATGTCTAGAA	76.4
GTCTTGTCTCATTGCGAAGTGGGTGTCCCCACTTCA	73.9
AATATTGGCCTTTTGCACGTTCGCGACTAAACGAGT	112
GTCTTGTCTCATTGACTGGTGGGTGTCCCCACTTCA	87.6

Series 3
Target: Sal-like protein 4, full length isoform A (SALL4, Homo sapiens, UniProt Q9UJQ4, residues 1-1053)
Chain of UniProt Q9UJQ4 (whole entry, looked up): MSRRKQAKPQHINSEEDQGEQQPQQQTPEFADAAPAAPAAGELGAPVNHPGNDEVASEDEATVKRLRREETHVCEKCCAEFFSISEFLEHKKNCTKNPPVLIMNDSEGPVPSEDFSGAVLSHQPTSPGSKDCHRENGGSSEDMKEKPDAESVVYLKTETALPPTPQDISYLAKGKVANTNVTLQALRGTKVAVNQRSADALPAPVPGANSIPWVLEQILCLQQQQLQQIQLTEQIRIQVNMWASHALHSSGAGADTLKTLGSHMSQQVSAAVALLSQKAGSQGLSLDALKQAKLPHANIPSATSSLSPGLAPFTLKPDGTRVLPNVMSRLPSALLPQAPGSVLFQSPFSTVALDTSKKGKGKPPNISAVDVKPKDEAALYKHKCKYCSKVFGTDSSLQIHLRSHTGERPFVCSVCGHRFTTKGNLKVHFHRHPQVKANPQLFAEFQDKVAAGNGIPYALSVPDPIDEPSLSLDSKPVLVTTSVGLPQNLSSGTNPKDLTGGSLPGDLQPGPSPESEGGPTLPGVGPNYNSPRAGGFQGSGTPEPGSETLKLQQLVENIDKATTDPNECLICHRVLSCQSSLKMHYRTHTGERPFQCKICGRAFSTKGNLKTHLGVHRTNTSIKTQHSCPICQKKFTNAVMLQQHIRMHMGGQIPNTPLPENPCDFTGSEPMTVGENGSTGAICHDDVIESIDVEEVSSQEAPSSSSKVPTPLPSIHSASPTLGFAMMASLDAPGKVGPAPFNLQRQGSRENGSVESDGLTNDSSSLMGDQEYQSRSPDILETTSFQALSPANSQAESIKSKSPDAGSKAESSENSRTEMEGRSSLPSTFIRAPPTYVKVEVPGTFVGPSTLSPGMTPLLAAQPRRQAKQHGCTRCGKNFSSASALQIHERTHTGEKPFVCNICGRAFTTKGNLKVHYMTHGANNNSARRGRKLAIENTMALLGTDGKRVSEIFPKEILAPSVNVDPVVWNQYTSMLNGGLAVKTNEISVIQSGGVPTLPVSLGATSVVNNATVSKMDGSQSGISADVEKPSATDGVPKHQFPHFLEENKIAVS
Technique: universal PBM
Molecule type: double-stranded DNA, one strand shown
Medium: in vitro
Concentration: 600 nM
Setting: 8-mer, flanks averaged, mean of replicates
Reading: higher = stronger binding
Oligonucleotide	E-score
CCGAGACA	-0.218
CCAAGAGA	-0.0194
GGTCCCAC	-0.323
GCGTAGGA	-0.196
AGCACACT	0.0597
AATCTGAG	-0.0598
CCTAGCAA	0.0275
CACTAATA	0.205

Other studies, line by line
Structure (SMILES)	target	read-out	technique	concentration	quantity	value
CCOC(=O)c1cc2cc(-c3cc(C(=O)NCc4ccc(C(=O)O)cc4)nn3C)ccc2[nH]1	Alpha-2A adrenergic receptor (ADRA2A, Homo sapiens, UniProt P08913)	binding	radioligand binding	10 µM	inhibition	12.3%

Repeated from above (series 3):
Oligonucleotide	E-score
CCAAGAGA	-0.0194
GGTCCCAC	-0.323
